# Published values collected from several papers.
# Numbered parts are unrelated; each lists some results of a single study. Positions count from the first letter of the parent shown.

# Set 1
# Target: ABI1, truncated, D143A, DHFR fusion (Arabidopsis thaliana)
# Technique: DHFR PCA, deep sequencing
# Sample: yeast
# Setting: methotrexate growth selection, single substitutions
# Together with: (+)-ABA 17 µM
# Relative to: wild-type fitted maximum
# Reading: higher = stronger binding
# Starting sequence: PYL1, truncated, DHFR fusion (Arabidopsis thaliana); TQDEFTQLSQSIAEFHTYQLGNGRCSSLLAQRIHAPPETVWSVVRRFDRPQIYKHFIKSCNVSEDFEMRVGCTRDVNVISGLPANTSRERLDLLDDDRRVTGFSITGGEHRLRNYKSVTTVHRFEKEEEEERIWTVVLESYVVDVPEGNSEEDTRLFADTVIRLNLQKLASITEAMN; partner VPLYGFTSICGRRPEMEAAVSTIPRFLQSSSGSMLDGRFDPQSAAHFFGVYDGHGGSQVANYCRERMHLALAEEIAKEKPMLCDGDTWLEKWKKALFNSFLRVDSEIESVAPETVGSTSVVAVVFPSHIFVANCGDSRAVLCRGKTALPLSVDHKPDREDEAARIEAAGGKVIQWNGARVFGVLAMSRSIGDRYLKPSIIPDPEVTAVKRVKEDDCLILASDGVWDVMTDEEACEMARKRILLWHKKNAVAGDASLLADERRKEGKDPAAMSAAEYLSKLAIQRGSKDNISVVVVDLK
Variant,relative binding score
G23P,22.4%
T135K,-13.1%
T6D,84.9%
F157D,-2.9%
K116W,2.58%
N22Y,78.4%
A30G,72%
E14N,62.2%
D144L,4.95%
N77I,86.9%
E125T,84.6%
A170L,19.4%
N22L,79.7%
F5Y,74.3%
H110G,10.5%
T101S,59%
L169G,-0.997%
R155M,69.2%
L29D,0.615%
I133H,89.1%

# Set 2
# Target: RNA binding protein fox-1 homolog 2, RRM domain, GST-SBP tag (RBFOX2, Homo sapiens, UniProt O43251-10, residues 100-194)
# Technique: RNA Bind-n-Seq
# Molecule type: RNA
# Sample: in vitro
# Concentration: 365 nM
# Setting: natural RNA segment, single round, ends assumed
# Relative to: no-protein control
# Reading: higher = stronger binding
# Construct (chain): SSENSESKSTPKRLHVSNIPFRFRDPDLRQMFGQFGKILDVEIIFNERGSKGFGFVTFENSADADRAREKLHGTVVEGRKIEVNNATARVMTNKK
Sequence,RBNS enrichment (R)
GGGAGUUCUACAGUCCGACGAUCUAGAAAACGUUGAACACUCCUACUGCCUGGAUAUAUGGUAGUGCAGUUAUGUUGUUUAUGGCUCAAGAUGUCAUUAGAAAUACUGCAGUGGUGUAUUCACAGCUGCUCCUUGGAAUUCUCGGGUGCCAA,0.34
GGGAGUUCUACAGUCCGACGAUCUUUUUUUGCUUGUUUUGGUUCUGUUCUCACUUUUAAAGGAUGCUGAGAUGGUAAUAUGACUCUCCAUAUUUUGGUACCAAUUCUGAGACUGUAUGAAUUUUCAGGUGGAAUGGAAUUCUCGGGUGCCAA,1.36
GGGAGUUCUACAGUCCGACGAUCAAAAAGUUGUCUUGUUGUAUUUUUGAUGCUGGCACAAGGUUCUUGUCCACUUUGGUUUUUCUUAUCUCUGUAUGUAAGAAAUUCUGUUUGUUGUUUACUAUGGAAUUAGUUGGAAUUCUCGGGUGCCAA,18.7
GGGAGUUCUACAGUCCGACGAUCUUAUUAUUUUUAAUUUUCUAAAUUAAAUAAAAGAAAGAAUGCAAACCAGGAGUGAAUUUCAAAUGAGAUGUAAUCGACUUUAUAUCUUAGUCACGGAGUUGCCAUGGCAUUGGAAUUCUCGGGUGCCAA,0.336
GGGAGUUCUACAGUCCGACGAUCACAAUCCCCAUCAGGUAGCUGUCUAACCCCCAGCUGGGUCUAAUCCUUCUCAUUACCCACCCGACCUGGCUGCCCCUCACCUUGGGCUGGGGGACUGGGGGGCCAUUUCCUGGAAUUCUCGGGUGCCAA,0.491
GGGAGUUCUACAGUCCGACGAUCCGAGGAGUGUAACUGAACCAGGAAUAUUUCCUCCAUUCCUGCUCUCCCACUGCACACAGGGUGGUGGCACAUUAUCCCUCUGGGGGGUGGGGACGCCUGUUGUUUUGGCUUGGAAUUCUCGGGUGCCAA,1.19
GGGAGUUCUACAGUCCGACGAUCGCUGUCUGUUGGGGGUUACAAGCAAGGUGGUAAACGUUAAGCUAGUAUCAUAGUCAUUUAAACCUGGAUAGAUUGUAACCAUUUUCCCUUCACUCUGACACUGUCUUAUUUGGAAUUCUCGGGUGCCAA,0.396
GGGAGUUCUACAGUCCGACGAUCGUCUGGUACUAGAUUUGCUCCUGUCCCACCCCGCAGUCCCCUGAGGAGGGCGAUGUGCGCCCUCUUUCACUUUUUUUCUUCUAGGUCUCCAGGUCCCGGAGGGGAUUUGUUGGAAUUCUCGGGUGCCAA,0.427

# Set 3
# Target: Histone acetyltransferase KAT6A, both winged helices, GST fusion (KAT6A, Homo sapiens, UniProt Q92794, residues 1-181)
# Technique: protein binding microarray
# Molecule type: double-stranded DNA, one strand shown
# Sample: in vitro
# Concentration: not given
# Setting: 8-mer, flanks averaged, mean of 2 arrays, mostly near background
# Relative to: not given
# Reading: higher = stronger binding
# Residues (chain): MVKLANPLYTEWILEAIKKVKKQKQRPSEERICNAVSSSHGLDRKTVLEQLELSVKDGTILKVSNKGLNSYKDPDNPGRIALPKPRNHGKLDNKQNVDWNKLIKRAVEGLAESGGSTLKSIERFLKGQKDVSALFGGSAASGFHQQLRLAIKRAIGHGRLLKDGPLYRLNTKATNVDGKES
Sequence,E-score
CAGTCCAA,-0.166
CACTGCCA,-0.149
CTACCGAG,0.104
TATATATA,0.0296
ATGATCTG,-0.0576
AAGAACGA,-0.0269
ACCTTGAA,-0.0997
AAGGCCTG,-0.0542
CTTAGTAC,0.012
GATCTTGA,-0.0457
ACGACCAA,-0.135
ATCCCTGC,-0.129
GGCGAAAC,0.0587
CTTTACCA,-0.0924
ATGCGGGC,0.107
CCACACAC,-0.0284
ATGAGTAA,-0.0876
ATACTGAA,-0.0386
GTTACTAA,-0.00963
CGGCTGAG,0.0297
ATAGTCCG,0.118
ATATCCTC,-0.267
ATTAAAGC,-0.021
AGAGCAAT,-0.222
TAAGGTGA,-0.0872

# Set 4
# Target: CCND1, cyclin fold, Cln2 fusion (human)
# Technique: yeast growth competition, sequencing
# Sample: yeast
# Setting: weak parent motif
# Relative to: not given
# Reading: higher = stronger binding
# Starting sequence: ITGB3BP docking peptide (human); MPVKRSLKLDGLL; partner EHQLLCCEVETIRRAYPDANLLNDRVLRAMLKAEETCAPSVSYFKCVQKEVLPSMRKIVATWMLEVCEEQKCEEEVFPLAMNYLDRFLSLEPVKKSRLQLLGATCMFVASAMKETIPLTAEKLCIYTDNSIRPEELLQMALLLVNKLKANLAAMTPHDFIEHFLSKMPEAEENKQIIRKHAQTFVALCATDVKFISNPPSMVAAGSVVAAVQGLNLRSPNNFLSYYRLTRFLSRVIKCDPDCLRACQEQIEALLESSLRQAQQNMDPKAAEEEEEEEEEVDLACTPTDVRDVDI
Variant,normalised enrichment score
MPVKASAKLDGLL [R5A L7A],-0.11
MPVKRSLKLAGLL [D10A],-0.047
MPVKRSLKADGLL [L9A],-0.216
MPVARSLKLDGLL [K4A],0.374
MPVKKSLKFDGLL [R5K L9F],0.0434
MPVKRSLKFDGLL [L9F],0.222
MPVKRSLALDGLL [K8A],0.14
MAVKRSLKLDGLL [P2A],0.286
MPVKRSAKLDGLL [L7A],0.54
MPVKASLKLDGLL [R5A],-0.229

# Set 5
# Target: XBP1, bZIP domain (human)
# Technique: DHFR protein complementation
# Sample: yeast
# Setting: single substitutions, most at no-binding floor
# Relative to: wild-type JUN-FOS pair
# Reading: higher = stronger binding
# Starting sequence: JUN, bZIP domain (human); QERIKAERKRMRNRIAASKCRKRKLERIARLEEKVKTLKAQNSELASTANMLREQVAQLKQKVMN; partner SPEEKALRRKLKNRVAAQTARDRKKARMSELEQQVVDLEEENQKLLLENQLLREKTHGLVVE
Variant,binding fitness [natural log]
A57W,-1.11
A49Q,-0.51
E33V,-1.34
N42Y,-1.47
A40Q,-0.464
E33T,-1.21
N42A,-1.42
T37C,-0.737
R53T,-1.48
L45M,-1.39
Q41H,-0.915
V35W,-1.42
T48I,-0.892
E54G,-1.14
K34V,-1.16
T48Y,-1.37
S43E,-0.271
T48D,-1.33
Q55D,-1.38
Q41A,-0.795
E32F,-1.51

# Some of these lines once more (set 1):
Variant,relative binding score
T6D,84.9%
F157D,-2.9%
K116W,2.58%
N22Y,78.4%
A30G,72%
E14N,62.2%
D144L,4.95%
N77I,86.9%
E125T,84.6%
A170L,19.4%
N22L,79.7%
F5Y,74.3%
H110G,10.5%
